Measurements of several laboratories.
Lines come from different studies, so protocols differ.
CTSL: Procathepsin L (CTSL, Homo sapiens, UniProt P07711)
Sequence of UniProt P07711 (whole entry, looked up): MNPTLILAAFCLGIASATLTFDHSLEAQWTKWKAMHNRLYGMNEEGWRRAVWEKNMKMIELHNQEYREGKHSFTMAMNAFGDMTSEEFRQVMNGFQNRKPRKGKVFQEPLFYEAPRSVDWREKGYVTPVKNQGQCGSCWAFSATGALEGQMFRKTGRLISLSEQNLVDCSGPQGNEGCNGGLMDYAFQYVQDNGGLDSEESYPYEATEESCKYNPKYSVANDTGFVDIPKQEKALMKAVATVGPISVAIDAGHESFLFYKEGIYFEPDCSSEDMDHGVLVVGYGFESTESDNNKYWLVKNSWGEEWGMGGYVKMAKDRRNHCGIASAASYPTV
DRD3: D(3) dopamine receptor (DRD3, Homo sapiens, UniProt P35462)
Sequence of UniProt P35462 (whole entry, looked up): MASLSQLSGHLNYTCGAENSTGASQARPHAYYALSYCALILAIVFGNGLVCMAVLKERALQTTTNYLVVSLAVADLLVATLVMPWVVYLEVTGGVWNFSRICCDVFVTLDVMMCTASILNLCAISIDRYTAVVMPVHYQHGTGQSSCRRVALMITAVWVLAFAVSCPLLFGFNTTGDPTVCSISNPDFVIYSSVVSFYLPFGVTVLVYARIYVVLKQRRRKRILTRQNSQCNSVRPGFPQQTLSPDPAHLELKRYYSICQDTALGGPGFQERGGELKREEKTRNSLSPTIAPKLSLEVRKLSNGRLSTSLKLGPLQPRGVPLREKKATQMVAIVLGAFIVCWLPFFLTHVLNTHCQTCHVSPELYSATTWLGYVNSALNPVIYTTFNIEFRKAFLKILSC
Sequence of UniProt Q08881 (whole entry, looked up): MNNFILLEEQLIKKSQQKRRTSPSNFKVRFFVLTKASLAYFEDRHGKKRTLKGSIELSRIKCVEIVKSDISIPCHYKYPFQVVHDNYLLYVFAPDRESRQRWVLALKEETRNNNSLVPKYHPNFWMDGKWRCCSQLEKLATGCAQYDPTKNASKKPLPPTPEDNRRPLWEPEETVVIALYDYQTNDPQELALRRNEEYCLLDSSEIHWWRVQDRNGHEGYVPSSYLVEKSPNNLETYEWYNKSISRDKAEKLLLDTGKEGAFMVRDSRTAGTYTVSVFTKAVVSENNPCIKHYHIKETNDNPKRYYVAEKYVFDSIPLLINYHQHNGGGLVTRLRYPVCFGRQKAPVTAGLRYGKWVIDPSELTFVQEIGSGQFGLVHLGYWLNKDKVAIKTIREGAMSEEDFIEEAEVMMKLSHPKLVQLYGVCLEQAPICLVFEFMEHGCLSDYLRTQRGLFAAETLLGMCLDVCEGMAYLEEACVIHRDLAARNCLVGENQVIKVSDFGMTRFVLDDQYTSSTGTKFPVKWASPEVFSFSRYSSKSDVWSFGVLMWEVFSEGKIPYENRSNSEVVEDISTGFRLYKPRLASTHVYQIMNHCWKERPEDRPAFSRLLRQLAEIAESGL
Sequence of UniProt Q5VT25 (whole entry, looked up): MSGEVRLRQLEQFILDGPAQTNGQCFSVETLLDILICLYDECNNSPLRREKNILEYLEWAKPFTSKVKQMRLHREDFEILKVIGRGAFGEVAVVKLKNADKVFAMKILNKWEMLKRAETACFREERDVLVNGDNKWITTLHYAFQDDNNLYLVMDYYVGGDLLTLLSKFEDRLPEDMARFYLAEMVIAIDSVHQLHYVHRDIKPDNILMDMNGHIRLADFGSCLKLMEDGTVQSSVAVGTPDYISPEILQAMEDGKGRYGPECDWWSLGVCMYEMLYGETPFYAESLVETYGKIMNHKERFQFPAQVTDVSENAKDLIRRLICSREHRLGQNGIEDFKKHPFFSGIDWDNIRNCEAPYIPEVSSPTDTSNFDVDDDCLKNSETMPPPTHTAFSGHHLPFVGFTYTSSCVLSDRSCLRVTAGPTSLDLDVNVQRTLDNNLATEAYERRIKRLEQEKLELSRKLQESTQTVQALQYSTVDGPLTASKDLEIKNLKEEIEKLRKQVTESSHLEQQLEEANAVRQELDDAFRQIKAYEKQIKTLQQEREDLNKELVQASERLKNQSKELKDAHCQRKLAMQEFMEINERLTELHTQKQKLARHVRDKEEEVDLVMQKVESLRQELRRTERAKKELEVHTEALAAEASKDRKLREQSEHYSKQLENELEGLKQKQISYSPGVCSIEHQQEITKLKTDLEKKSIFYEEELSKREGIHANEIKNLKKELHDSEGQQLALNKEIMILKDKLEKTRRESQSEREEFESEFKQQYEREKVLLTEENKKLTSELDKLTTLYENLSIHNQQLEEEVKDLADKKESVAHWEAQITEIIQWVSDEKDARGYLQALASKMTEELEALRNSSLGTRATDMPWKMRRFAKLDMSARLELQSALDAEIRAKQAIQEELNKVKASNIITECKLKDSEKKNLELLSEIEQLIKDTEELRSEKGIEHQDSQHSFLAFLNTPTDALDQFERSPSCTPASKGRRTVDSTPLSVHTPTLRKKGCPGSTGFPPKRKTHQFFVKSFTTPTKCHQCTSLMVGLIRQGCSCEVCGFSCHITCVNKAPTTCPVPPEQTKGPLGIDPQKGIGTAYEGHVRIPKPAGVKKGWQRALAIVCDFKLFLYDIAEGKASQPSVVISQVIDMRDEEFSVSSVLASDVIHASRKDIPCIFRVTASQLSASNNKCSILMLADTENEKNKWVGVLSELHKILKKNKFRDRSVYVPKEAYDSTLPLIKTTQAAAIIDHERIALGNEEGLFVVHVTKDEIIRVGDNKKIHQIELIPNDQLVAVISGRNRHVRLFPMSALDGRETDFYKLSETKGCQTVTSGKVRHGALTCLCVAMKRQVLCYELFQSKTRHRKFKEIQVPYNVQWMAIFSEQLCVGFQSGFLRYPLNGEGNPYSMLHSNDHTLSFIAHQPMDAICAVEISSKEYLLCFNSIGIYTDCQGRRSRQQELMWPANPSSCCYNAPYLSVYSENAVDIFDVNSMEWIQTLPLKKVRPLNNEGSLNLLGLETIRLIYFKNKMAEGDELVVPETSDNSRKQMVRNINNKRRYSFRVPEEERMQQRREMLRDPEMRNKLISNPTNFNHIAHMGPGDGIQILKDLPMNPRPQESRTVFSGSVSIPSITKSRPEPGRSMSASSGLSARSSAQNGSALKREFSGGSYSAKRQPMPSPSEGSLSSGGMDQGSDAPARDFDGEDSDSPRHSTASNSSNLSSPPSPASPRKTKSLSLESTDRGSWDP
Sequence of UniProt Q16620 (whole entry, looked up): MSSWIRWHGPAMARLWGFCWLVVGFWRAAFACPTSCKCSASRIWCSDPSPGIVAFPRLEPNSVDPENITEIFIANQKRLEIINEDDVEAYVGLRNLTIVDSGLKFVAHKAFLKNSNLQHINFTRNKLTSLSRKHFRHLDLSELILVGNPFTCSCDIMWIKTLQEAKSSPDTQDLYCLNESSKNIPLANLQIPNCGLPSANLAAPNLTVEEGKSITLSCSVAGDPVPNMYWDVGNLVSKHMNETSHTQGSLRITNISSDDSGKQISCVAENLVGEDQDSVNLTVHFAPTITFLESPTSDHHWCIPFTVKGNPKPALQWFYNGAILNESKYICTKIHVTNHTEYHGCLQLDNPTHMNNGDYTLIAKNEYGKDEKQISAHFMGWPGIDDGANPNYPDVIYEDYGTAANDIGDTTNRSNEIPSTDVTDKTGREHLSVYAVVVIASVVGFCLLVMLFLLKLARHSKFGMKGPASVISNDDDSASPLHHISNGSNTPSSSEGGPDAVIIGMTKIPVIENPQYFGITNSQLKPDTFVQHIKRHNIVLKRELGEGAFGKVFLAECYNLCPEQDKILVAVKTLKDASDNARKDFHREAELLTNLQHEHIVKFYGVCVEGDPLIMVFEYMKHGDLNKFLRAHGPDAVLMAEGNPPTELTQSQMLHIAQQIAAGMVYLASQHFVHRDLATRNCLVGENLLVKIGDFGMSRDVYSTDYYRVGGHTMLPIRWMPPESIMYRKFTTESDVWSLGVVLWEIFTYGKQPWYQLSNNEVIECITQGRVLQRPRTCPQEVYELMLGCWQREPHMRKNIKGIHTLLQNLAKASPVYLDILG
Sequence of UniProt P53778 (whole entry, looked up): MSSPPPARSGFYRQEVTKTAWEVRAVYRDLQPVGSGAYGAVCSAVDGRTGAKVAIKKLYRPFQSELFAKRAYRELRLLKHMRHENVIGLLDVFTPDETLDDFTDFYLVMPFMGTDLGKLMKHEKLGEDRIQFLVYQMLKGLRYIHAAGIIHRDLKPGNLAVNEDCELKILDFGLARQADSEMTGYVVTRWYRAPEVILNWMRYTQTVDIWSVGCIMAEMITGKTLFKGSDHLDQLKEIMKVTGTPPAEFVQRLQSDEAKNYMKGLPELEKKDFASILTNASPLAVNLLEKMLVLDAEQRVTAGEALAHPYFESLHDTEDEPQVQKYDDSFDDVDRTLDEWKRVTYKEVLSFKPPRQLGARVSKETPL
Sequence of UniProt Q70EK9 (whole entry, looked up): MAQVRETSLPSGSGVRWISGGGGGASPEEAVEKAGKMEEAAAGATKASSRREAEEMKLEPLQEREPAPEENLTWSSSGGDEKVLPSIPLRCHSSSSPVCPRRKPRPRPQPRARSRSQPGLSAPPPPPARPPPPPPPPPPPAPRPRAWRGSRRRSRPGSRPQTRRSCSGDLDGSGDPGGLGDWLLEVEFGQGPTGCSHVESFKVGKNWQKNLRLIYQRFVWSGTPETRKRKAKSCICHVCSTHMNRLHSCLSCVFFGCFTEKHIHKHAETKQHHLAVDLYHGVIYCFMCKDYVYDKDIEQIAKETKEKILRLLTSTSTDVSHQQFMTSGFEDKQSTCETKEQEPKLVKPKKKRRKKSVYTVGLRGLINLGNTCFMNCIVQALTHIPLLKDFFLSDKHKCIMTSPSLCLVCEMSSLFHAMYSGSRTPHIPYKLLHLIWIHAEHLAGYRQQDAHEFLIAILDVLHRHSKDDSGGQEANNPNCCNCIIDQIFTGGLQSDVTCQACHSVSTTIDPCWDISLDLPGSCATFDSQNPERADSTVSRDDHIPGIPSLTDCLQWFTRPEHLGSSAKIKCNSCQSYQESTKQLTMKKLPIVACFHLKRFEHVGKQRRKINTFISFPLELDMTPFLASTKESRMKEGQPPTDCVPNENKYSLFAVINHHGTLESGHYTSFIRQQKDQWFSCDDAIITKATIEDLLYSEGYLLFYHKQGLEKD

O=C(/C=C/c1ccc(O)cc1)NCCc1c[nH]c2ccc(O)cc12
remaining activity (CTSL; enzyme activity, inhibitor; 100 µM): 75.5%

OC[C@@H](O)[C@@H](O)[C@H](O)[C@H](O)CO
inhibition (USP51 (Homo sapiens, UniProt Q70EK9); enzyme activity, inhibitor; 5 µM): 65%

NC/C(=C\F)COc1cccc(Cn2c(=S)[nH]c(=O)c3[nH]cnc32)c1
inhibition (Myeloperoxidase (MPO, Homo sapiens, UniProt P05164); enzyme activity, inhibitor, fluorescence; 1 µM): 99.1%

O=C(O)CNC(=O)c1ccccc1
remaining activity (CTSL; enzyme activity, inhibitor; 100 µM): 106%

C=CC(=O)N1CCC(COCC(=O)N2CCN(c3nc(-c4cnc(N)nc4C(F)F)nc(N4CCOC[C@@H]4C)n3)CC2)CC1
remaining binding (MAPK12 (Homo sapiens, UniProt P53778); binding, competition with immobilised ligand; 1 µM): 99%

Nc1ncnc2occ(-c3ccc(NC(=O)Nc4cc(C(F)(F)F)ccc4F)cc3)c12
remaining signal (Tyrosine-protein kinase ABL1, non-phosphorylated (ABL1, Homo sapiens, UniProt P00519, H396P); cell-free assay, inhibitor; 20 µM): 0%

COc1cc(-c2cncc3c2CN(C)Cc2cc(N4CCNCC4)ccc2-3)cc(OC)c1OC
remaining activity (ITK (Homo sapiens, UniProt Q08881); enzyme activity, inhibitor; 1 µM): 97%

O=C(/C=C/c1ccc(O)c2c1C(C(=O)OC(Cc1ccc(O)c(O)c1)C(=O)O)C(c1ccc(O)c(O)c1)O2)OC(Cc1ccc(O)c(O)c1)C(=O)O (centres unmarked)
remaining activity (CTSL; enzyme activity, inhibitor; 100 µM): 29%

CNc1ncc2c(/C=C/C(=O)N3CCC(OC)CC3)nn(Cc3cccc(C(F)(F)F)c3)c2n1
remaining activity (NTRK2 (Homo sapiens, UniProt Q16620); enzyme activity, inhibitor, radiometric; 1 µM): 76%

Cc1[nH]c(C)c(S(N)(=O)=Nc2ccc(C(F)(F)F)c(Cl)c2)c1C(=O)N1CCC(F)(F)C1 (centres unmarked)
Emax (DRD3; β-arrestin recruitment, agonist; 90 min): 95%

Cc1cc([C@@H](C)Nc2ccccc2C(=O)O)c2nc(N3CCC(F)(F)CC3)c(C#N)c(=O)n2c1
remaining binding (PIK3C2B (Homo sapiens, UniProt O00750); binding, competition with immobilised ligand; 1 µM): 100%

COc1c(/C=C/C(=O)c2ccc(O)c(CC=C(C)C)c2)ccc(O)c1O
remaining activity (CTSL; enzyme activity, inhibitor; 100 µM): 0.926%

CCCCC(=O)Nc1ccc(-c2ccc3ncn(CCC)c(=O)c3c2)cn1
remaining binding (CDC42BPA (Homo sapiens, UniProt Q5VT25); binding, competition with immobilised ligand; 0.5 µM): 100%

C1=C/COCc2cc(ccc2OCCN2CCCC2)Nc2nccc(n2)-c2cccc(c2)COC/1
remaining binding (MST1R (Homo sapiens, UniProt Q04912); binding; 0.1 µM): 100%

CC[C@H](C)[C@H](NC(=O)[C@H](CCC(N)=O)NC(=O)[C@H](CCCNC(=N)N)NC(=O)[C@H](CO)NC(=O)[C@H](Cc1c[nH]cn1)NC(=O)[C@@H]1CCCN1C(=O)[C@H](C)NC(=O)[C@H](CO)NC(=O)[C@H](CC(C)C)NC(=O)CNC(=O)[C@@H]1CCCN1C(=O)[C@H](CCC(N)=O)NC(=O)[C@H](CCC(N)=O)NC(=O)[C@H](CCCNC(=N)N)NC(=O)[C@H](CO)NC(=O)CNC(=O)[C@H](CO)NC(=O)[C@H](CO)NC(=O)[C@H](CCC(=O)O)NC(=O)[C@@H]1CCCN1C(=O)[C@@H]1CCCN1C(=O)[C@@H]1CCCN1C(=O)[C@H](CO)NC(=O)[C@H](CC(C)C)NC(=O)[C@H](CO)NC(=O)[C@@H](NC(=O)CN)[C@@H](C)O)C(=O)N1CCC[C@H]1C(=O)N[C@@H](C)C(=O)N1CCC[C@H]1C(=O)N[C@@H](CCC(N)=O)C(=O)NCC(=O)N[C@@H](C)C(=O)N[C@H](C(=O)N[C@@H](CC(C)C)C(=O)N[C@H](C(=O)N[C@@H](CCC(N)=O)C(=O)N[C@@H](CCCNC(=N)N)C(=O)N[C@@H](CCC(=O)O)C(=O)N[C@@H](CCCCN)C(=O)N[C@@H](CC(=O)O)C(=O)N[C@@H](CC(C)C)C(=O)N1CCC[C@H]1C(=O)N[C@@H](CC(N)=O)C(=O)N[C@@H](Cc1ccc(O)cc1)C(=O)N[C@@H](CC(N)=O)C(=O)N[C@@H](Cc1c[nH]c2ccccc12)C(=O)N[C@@H](CC(N)=O)C(=O)N[C@@H](CO)C(=O)N[C@@H](Cc1ccccc1)C(=O)NCC(=O)N[C@@H](CC(C)C)C(=O)N[C@@H](CCCNC(=N)N)C(=O)N[C@@H](Cc1ccccc1)C(N)=O)C(C)C)C(C)C
Emax (KiSS-1 receptor (KISS1R, Homo sapiens, UniProt Q969F8, H181A); inositol phosphate, agonist; HEK293): 71.8%

Cc1[nH]c(C)c(C(=O)N2CCC(F)(F)C2)c1C(=O)Nc1ccc(C(F)(F)F)c(Cl)c1
Emax (DRD3; β-arrestin recruitment, agonist; 90 min): 82%

C[C@@H]1CCN(c2nccc(-c3cnn4ncccc34)n2)C1
remaining signal (CRK2 (Plasmodium falciparum, UniProt P61075); cell-free assay; 1 µM): 84%
